# Results collected from several papers.
# Protocols differ between the studies behind these lines. Numbers after ± are the reported error.
Structure (SMILES),cell line,test,conditions,scale,endpoint,value
CO[C@H]1N(OC)c2ccccc2[C@@]12CN=C(Nc1cc(C(F)(F)F)cc(C(F)(F)F)c1)S2 (relative stereo),HCT-116,PI flow cytometry,"40 µM, 72 h",,G2/M phase cells,5.07 ± 2.52%
CC(=O)N[C@H](C(=O)N[C@H](C(=O)N[C@@H](CCCNC(=N)N)C(=O)N1Cc2ccccc2C[C@H]1C(=O)N[C@@H](Cc1ccccc1)C(N)=O)C1CCCCC1)C(C)C,MBP-specific BC-3 T cells,"Bio-Plex multiplex, item: IL-12(p70)","200 µg/mL, 24 h, with: MBP87-99 antigen",,cytokine level,7.2 ± 5.2 pg/mL
O=C(O)c1ccc(/C=C2\SC(=S)N(Cc3cccc(C(F)(F)F)c3)C2=O)cc1,LPS-primed mouse BMDM,item: IL-1β,"concentration not given, with: poly(dA:dT)",,AIM2 inflammasome activation,no effect
COc1ccc([C@@H]2CC(=O)c3c(O)cc(O[C@@H]4O[C@H](CO[C@@H]5O[C@@H](C)[C@H](O)[C@@H](O)[C@H]5O)[C@@H](O)[C@H](O)[C@H]4O)cc3O2)cc1O,A549,Matrigel Transwell invasion,"100 µg/mL, 48 h",,invasion,37.1 ± 6.26%
CCCCCCCCCCCCCC[C@@H](O)[C@@H](O)[C@H](CO[C@H]1O[C@H](CO)[C@H](O)[C@H](O)[C@H]1O)NC(=O)CCCCCCc1ccccc1,human Vα24+ NKT cells,,"concentration not given, HeLa-CD1d co-culture",relative to: α-GalCer,IFN-γ/IL-4 ratio,1.73 ± 0.17
CN1CCN(C(=O)N(CCCCCCC(=O)NO)c2ccc(-c3ccc4cnn(C)c4c3)cc2)CC1,RPMI-8226,"immunoblot, item: DACT3","300 and 1000 nM, 24 h",,protein level,increased
CCOC(=O)CCC(NC(=O)C(NC(=O)c1c(C)nn(-c2ccc(F)cc2)c1C)C(C)C)C(=O)OCC (centres unmarked),HEK-Blue Null2 cells,"NF-κB reporter gene, agonist","10 µM, 16 h",,activity,inactive
CCn1nc(Cl)c2c1-c1cnc(N)c(c1)O[C@H](C)c1cc(F)ccc1-c1nn(C)cc1C2,45 ALK-driven cell lines,cell viability,,relative to: cpd over other ALK inhibitors,"IC50 ratio, median",~1.3 fold
CCOC(=O)COc1cc(Oc2ccc(S(=O)(=O)c3ccc(OC(C)C)cc3)cc2)c([N+](=O)[O-])cc1C(=O)C(Cl)Cl,NCI-H1650,"cell growth or viability, MTT",2.5 µM,,inhibition,> 95%
COc1cc(CNC(=O)C[C@H](C)CCC=C(C)C)ccc1OCc1cn(-c2cccc(C(F)(F)F)c2)nn1,UACC-62 melanoma cells,SRB,"10 µM, 48 h",,growth percent,72.1%
COc1cc2c(OC3OCC(OC)C(OC)C3OC(=O)c3ccc(Br)cc3)c3c(c(-c4ccc5c(c4)OCO5)c2cc1OC)C(=O)OC3 (centres unmarked),FaDu,"qRT-PCR, item: CTSD","0.1, 1, 2 µM, 36 h, with: bafilomycin A1 0.1 µM",relative to: DMSO,mRNA level,decreased
CC(Cc1ccc(Cl)cc1)=C(c1ccc(Cl)cc1)c1ccc(OCCN(C)C)cc1,MDA-MB-435,"cell growth or viability, SRB",,,GI50,4520 nM
C[C@@H](C(=O)Nc1ccc(Cn2cc(C(F)(F)F)ccc2=O)cc1)N(C)C,NIH3T3,"cell growth or viability, CCK-8",1 mM,,inhibition,64.2%
Cc1cc([C@H](C(=O)N2C[C@H](O)C[C@H]2C(=O)N[C@@H](CC(=O)N2CCC(N3CCC(C#Cc4ccc(C(=O)N[C@H]5C(C)(C)[C@H](Oc6ccc(C#N)c(Cl)c6)C5(C)C)cc4)CC3)CC2)c2ccc(-c3scnc3C)cc2)C(C)C)on1,MDA-MB-453,mRNA and protein,"concentration not given, 24 h, with: 1 nM R1881",,WNT7B and MYC expression,inhibited
O=c1c2ccccc2[se]n1CCCCCCn1[se]c2ccccc2c1=O,H22,"cell growth, EZMTT",,,maximal inhibition,100%
COc1ccc2cc3[n+](cc2c1OCc1cn(Cc2ccc(C(C)(C)C)cc2)nn1)CCc1cc2c(cc1-3)OCO2.[Cl-],SW1990,"cell growth, MTT",7.8 µM,,inhibition,> 50%
Cc1ccc(C(C)C)cc1.[Cl-].[Cl][Ru+].[Ru+].c1ccc(-c2cn(CCCCOc3ccccc3-c3nc4ccccc4s3)nn2)nc1,MCF7,"PI flow cytometry, item: S phase","8 µM, 24 h",,cells in phase,22.6%
COc1cc(CNC(=O)C[C@H](C)CCC=C(C)C)ccc1OCc1cn(-c2ccc(F)cc2)nn1,K562 leukaemia cells,SRB,"10 µM, 48 h",,growth percent,72.7%
CCCc1c(O)c(O)cc(C(=O)O)c1COC1OC(CO)C(O)C(O)C1O (centres unmarked),SW480,"β-catenin-dependent transcription, TOPFLASH luciferase reporter",concentration not given,,reporter activity,no effect
NCCCCCO[C@H]1O[C@H](COS(=O)(=O)O)[C@@H](O[C@@H]2O[C@@H](C(=O)O)[C@@H](O[C@H]3O[C@H](COS(=O)(=O)O)[C@@H](O[C@@H]4O[C@@H](C(=O)O)[C@@H](O[C@H]5O[C@H](COS(=O)(=O)O)[C@@H](O[C@@H]6O[C@@H](C(=O)O)[C@@H](O)[C@H](O)[C@H]6OS(=O)(=O)O)[C@H](O)[C@H]5NS(=O)(=O)O)[C@H](O)[C@H]4OS(=O)(=O)O)[C@H](O)[C@H]3NS(=O)(=O)O)[C@H](O)[C@H]2OS(=O)(=O)O)[C@H](O)[C@H]1NS(=O)(=O)O,human corneal epithelial cells,flow cytometry,concentration not given,,cell surface heparan sulfate,no effect
CCN(CC)C1CCN(Cc2cc(C#CCNc3ccccc3)cc(I)c2O)CC1,NUGC-4 p53 wild type,,"6.25 to 100 µM, 6 h",,caspase 3/7 activity,no effect
CC(=O)OC[C@H]1O[C@@H](Sc2sc(C(=O)c3ccc(Br)cc3)c(N)c2-c2nc3ccccc3s2)[C@H](OC(C)=O)[C@@H](OC(C)=O)[C@@H]1OC(C)=O,SF-295,SRB,"10 µM, 48 h",relative to: untreated,growth,69.6%
COc1ccc(-c2ocnc2-c2cc(Br)c(OC)c(OC)c2)cc1OCCCC(=O)NO,HepG2 and Huh-7,cell proliferation,0.1 to 1.0 µM,,time to inhibition,12 h
COc1cc(CNC(=O)C[C@H](C)CCC=C(C)C)ccc1OCc1cn(-c2ccccc2)nn1,K562 leukaemia cells,SRB,"10 µM, 48 h",,growth percent,79.4%
Cc1ccc(C(C)C)cc1.Oc1ccccc1C=NNC1=Nc2ccccc2-c2[nH]c3ccc(Br)cc3c2C1.[Cl-].[Cl][Ru+],SW480,annexin V/PI flow cytometry,"5 µM, 48 h, early plus late apoptosis",,apoptotic cells,72%
O=Cc1c(O)ccc2ccccc12,HUVEC,"RNA sequencing, item: EMCN","75 µM, 24 h",relative to: DMSO,log2 fold change,-3.4
COc1cc(CNC(=O)C[C@H](C)CCC=C(C)C)ccc1OCc1cn(-c2ccc(Cl)cc2Cl)nn1,K562 leukaemia cells,SRB,"10 µM, 48 h",,growth percent,81.4%
COc1cc2c(cc1C)NC(=O)C2=Cc1c(Cl)[nH]c2c1ccc1ccccc12,NCI-60 panel mean,,48 h,,TGI,4790 nM
C[C@H](CC(=O)C[C@@H](C)[C@H]1C[C@H](O)[C@@]2(C)C3=C(C(=O)C[C@]12C)[C@@]1(C)CCC(=O)C(C)(C)[C@@H]1C[C@@H]3O)C(=O)O,3T3-L1 adipocytes,,25 µg/mL,,glucose consumption,11.9 ± 0.63 mmol/L
O=C1CCC(N2C(=O)c3ccc(N4CCC(C(=O)N5CCC(CCN6CCC(CNC(=O)c7cccc(-c8noc(C(F)(F)F)n8)c7)(c7nc(-c8ccccc8)cs7)CC6)CC5)CC4)cc3C2=O)C(=O)N1 (centres unmarked),NB-4,flow cytometry,"5 µM, 24 h",,sub-G0 cells,43.4%
COc1ccc2c(c1CC=C(C)C)O[C@H]1c3cc(CC=C(C)C)c(O)cc3OC[C@@H]21,3T3-L1 adipocytes,activator,up to 100 µM,,glucose consumption,inactive
CC/C=C\C/C=C\C/C=C\C/C=C\C/C=C\C/C=C\CCC(=O)Nc1ccn(C2OC(CO)C(O)C2(F)F)c(=O)n1 (centres unmarked),SNB-75,"cell growth or viability, SRB",,,GI50,401 nM
CC(=O)OC[C@H]1O[C@@H](Sc2sc(C(=O)c3ccc(C)cc3)c(N)c2-c2nc3ccccc3s2)[C@H](OC(C)=O)[C@@H](OC(C)=O)[C@H]1OC(C)=O,MDA-MB-435,SRB,"10 µM, 48 h",relative to: untreated,growth,86.3%
COc1ccc([C@@H]2CC(=O)c3c(O)cc(O[C@@H]4O[C@H](CO[C@@H]5O[C@@H](C)[C@H](O)[C@@H](O)[C@H]5O)[C@@H](O[C@H]5O[C@H](CO)[C@@H](O)[C@H](O)[C@H]5O)[C@H](O)[C@H]4O)cc3O2)cc1O,A549,trypan blue exclusion,"100 µg/mL, 48 h",,cell count,13300 ± 468
COc1cc(CNC(=O)C[C@H](C)CCC=C(C)C)ccc1OCc1cn(-c2cccc(Cl)c2)nn1,NCI-H226,SRB,"10 µM, 48 h",,growth percent,54.2%
CC(=O)C1=C(C)NC(SCC(=O)c2ccccc2)=C(C#N)C1c1sccc1C (centres unmarked),"A549 cells, GR knockdown",,"concentration not given, 24 h, weaker than with normal GR, with: TNF-α 20 ng/mL",,COX-2 mRNA level,decreased
CCC(=C(c1ccc(Cl)cc1)c1ccc(OCCCN(C)C)cc1)c1ccc(OC)cc1,RPMI-8226,cell growth or viability,,,GI50,1170 nM
O=C1Nc2ccccc2/C1=N\Nc1nnc2n1N=C(c1ccc(Cl)cc1)CS2,SNB-75,"cell growth or viability, SRB",10 µM,,inhibition,12%
COc1cc(CNC(=O)C[C@H](C)CCC=C(C)C)ccc1OCc1cn(-c2ccccc2[N+](=O)[O-])nn1,NCI-H226,SRB,"10 µM, 48 h",,growth percent,56.9%
Cc1ccc(C2=Nn3c(N/N=C4/C(=O)Nc5ccc(Br)cc54)nnc3SC2)cc1,SNB-75,"cell growth or viability, SRB",10 µM,,inhibition,18%
CCCC[C@@H]1NC(=O)[C@@H](NC(=O)[C@H](CCC(=O)O)NC(=O)[C@H](CCC(=O)O)NC(C)=O)CCCCNC(=O)[C@@H](NC(=O)CN2CCN(CC(=O)O)CCN(CC(=O)O)CCN(CC(=O)O)CC2)CCCCNC(=O)[C@H](C(C)C)NC(=O)[C@@H]2CCCN2C(=O)[C@H](CCCNC(=N)N)NC(=O)CNC(=O)[C@H](Cc2c[nH]c3ccccc23)NC(=O)[C@H](CCCNC(=N)N)NC(=O)[C@@H](Cc2ccccc2)NC(=O)[C@H](Cc2c[nH]cn2)NC(=O)[C@H](CCC(=O)O)NC1=O [indium-111 labelled],B16/F1,,"concentration not given, 2 h",,activity retained after efflux,68.6 ± 1.43%
COc1cc(CNC(=O)C[C@H](C)CCC=C(C)C)ccc1OCc1cn(-c2ccc(Br)cc2)nn1,NCI-H226,SRB,"10 µM, 48 h",,growth percent,70.2%
COC(=O)[C@@H]1[C@@H](OC)[C@H](OC(=O)c2cc(OC)c(OC)c(OC)c2)C[C@@H]2CN3CC[C@]4(O[C@@H]3C(=O)[C@@H]21)C(=O)Nc1cc(OC)c(-c2ccc(C(F)(F)F)cc2)cc14,RS4;11,annexin V/PI flow cytometry,"10 µM, 72 h",,late apoptotic cells,82.6 ± 8.8%
COc1ccc2c(c1)c(CC(=O)Nc1nnc(CCCCc3ccc(NC(=O)Cc4cccc(OC(F)(F)F)c4)nn3)[se]1)cn2C,H22,EZMTT,"concentration not given, 120 h",,growth inhibition,60 to 80%
O=C(N1CCCC1)n1cc(-c2ccc(-c3ccccc3)cc2)nn1,mouse T-cells,"N-terminal labeled proteins, N-terminal enrichment proteomics, item: SKP1A","1 nM, 6 h",relative to: DMSO,SILAC ratio,1.18 ± 0.26
COc1c(CC=C(C)C)c(O)cc2c1[C@@H]1Oc3c(ccc(O)c3CC=C(C)C)[C@@H]1CO2,3T3-L1 adipocytes,activator,up to 100 µM,,glucose consumption,inactive
CCOC(=O)C1NC(c2ccc[n+](C)c2)C23c4c5c6c7c8c9c(c%10c%11c2c2c4c4c%12c5c5c6c6c8c8c%13c9c9c%10c%10c%11c%11c2c2c4c4c%12c%12c5c5c6c8c6c8c%13c9c9c%10c%10c%11c2c2c4c4c%12c5c6c5c8c9c%10c2c45)C713 (centres unmarked),PEL cells,"Western blot, item: β-catenin","20 µM, 8 to 24 h",,protein level,decreased
